Published values of several laboratories.
Every numbered part comes from another study and shows a few of its results, in no order. Substitutions count along the parent as printed.

Set 1 — method: RNA Bind-n-Seq; form: RNA; medium: in vitro; tested at: not given; notes: RNA with constant flanks, ends assumed; relative to: input RNA pool; direction: higher = stronger binding
Target: RING finger protein unkempt homolog, zinc fingers 1-6, GST-SBP tag (UNK, Homo sapiens, UniProt Q9C0B0, residues 30-357)
All sequences stand within: GGGAGUUCUACAGUCCGACGAUC … CAACAGAGGAUUGAGCAUCA
Residues (chain): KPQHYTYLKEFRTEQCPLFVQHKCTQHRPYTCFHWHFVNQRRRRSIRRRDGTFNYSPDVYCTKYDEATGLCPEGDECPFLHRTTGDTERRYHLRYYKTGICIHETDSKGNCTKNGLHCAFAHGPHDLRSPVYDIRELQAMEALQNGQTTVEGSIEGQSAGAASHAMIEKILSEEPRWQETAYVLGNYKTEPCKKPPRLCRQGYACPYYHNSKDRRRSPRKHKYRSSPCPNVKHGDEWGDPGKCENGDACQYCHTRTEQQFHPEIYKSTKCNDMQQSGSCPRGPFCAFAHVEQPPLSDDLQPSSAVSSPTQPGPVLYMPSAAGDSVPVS
| Sequence | bound/input enrichment [ratio] |
| --- | --- |
| AAAUAUGUUGUACAUUUGAUUAAAAUUAUUUAGAUAAAUAUUACUAUGUUGACUUUUAAACCGCUUUAUCCUAUUUUUCAUUCAUUUUGCAAAUAUUUGUUGUGUGUAGUUUCUUAACGU | 13.6 |
| UUCUUCUUCUUUGACUCAGUUCAAGUAGUUUUUACAAUAUGUACAGCAGUUCUUGCAACGACCGCUUUUGCUUUUCUUCUCCUCCCGAUGUGCCAGUAUUUAACAAGACCCUGCUCACCU | 4.79 |
| AAGCACUUUCAGCAGGCAAAAAUGAUCCUUGAAAAUAUCCCCAAUCCAGACCGUGAGGUCAGCCGAAUCCUGAAGGUUGCCAAGCCCAACUUUGUGGUUAUGAAGCUCUUAGCAGGAGGA | 0.177 |
| AUCCCCCAGGAAUUGAACAACAUUACCAAGCUCAACGAACACUUCAGCAAAUUUGGAACCACCGUUAAUAUCCAGGUUGCUUUUAAGGGUGAUCCAGAAGCAGCACUCAUCCAAUACCUU | 0.261 |
| GGCAUGAAGGACGAUCGUCGUGACAGAUACUCUGCAGGCAAAAGGGGUGGAUUUAAUACCUUCCGAGACAGGGAAAACUAUGACAGAGGCUACUCUAAUCUGCUUAAGAGAGAUUUUGGG | 0.367 |
| AACAAAGAUUAUCACCAGGAUGUGCGUAAUAACUUUUUGCCACCAAUUAUUGCACGUUUUAUCCGAGUGAAUCCUACCCAAUGGCAGCAGAAAAUUGCCAUGAAAAUGGAGCUGCUCGGA | 0.115 |
| GGGCUCCAGGACUCUCAAGCUGGCAUCAUAUUAUUUGUUAUUUAAAAGACACAAUUAUUUCCGGCCGAUCUUUUUUUUUAAUGAGGUGGGGUAAGGCUGUGACUUUUGAUCUAAACAAAA | 0.219 |
| UGAAAAUAAUCGUCACCCAGAAAAUCCAGAAAACUGAAGAUUUCAUCAGUUGGAAACAGCCGCACUUUGAAAACUUUUUAGGCCAGCUUUAAUUUAAUGGCCCUACUGAUAUUCACAUCG | 0.239 |
| ACAAAUUCUAAGUCUGAUGAAGACAGGCAGCUAGCUAACUCAUUAGAGAGUGUAGGGCCAACCGAUUACGUUCUUCCUAGUUGUGGUAUUAUUGCCUCAGCGCCUCGAUUGGGCAGUCGG | 0.326 |
| AAUAGAGAUUUGUCCACACCUGGCCUGGAGAAGGACAGUGGAGGGAAGACACCUGGUGACUUCCGCUAUGCCUAUCAAAAGCCUGAGGAAACAACCAGGUCCCCAGAUGAAGAAGAUUAU | 0.235 |
| ACUGUGCUUCAAGCGGUGUCUGCUUUUGGGGCAGAGUUUUCAUCGGAGGCAUGCAGAGAGUCCGGCUUUUCUAGCAACUUGCUUUGCAGCUCUUGUGAUCUUCUCGGACAGUUCAACCUG | 0.0715 |

Set 2 — target: FOS, bZIP domain (human); method: DHFR protein complementation; medium: yeast; relative to: wild-type JUN-FOS pair; direction: higher = stronger binding
Notes: single substitutions, most at no-binding floor
Starting sequence: JUN, bZIP domain (human); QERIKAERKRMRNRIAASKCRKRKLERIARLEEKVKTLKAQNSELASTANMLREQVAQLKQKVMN; partner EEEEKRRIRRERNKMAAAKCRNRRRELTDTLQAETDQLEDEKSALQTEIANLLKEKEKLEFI
| Variant | binding fitness |
| --- | --- |
| M51Q | -0.00911 natural log |
| T48A | -0.189 natural log |
| E33N | -0.215 natural log |
| E54G | -0.123 natural log |
| Q55T | -0.0675 natural log |
| K39C | -0.757 natural log |
| V56K | -1.34 natural log |
| R30I | 0.0513 natural log |
| I28Y | -0.251 natural log |
| A40L | -0.0856 natural log |
| A57R | -0.0968 natural log |
| V35E | -1.11 natural log |
| T37Q | 0.131 natural log |
| L45Y | -0.61 natural log |
| E32P | -1.16 natural log |
| R53K | -0.12 natural log |

Set 3 — method: protein binding microarray; form: double-stranded DNA, one strand shown; medium: in vitro; tested at: not given; relative to: not given; direction: higher = stronger binding
Target: Histone acetyltransferase KAT6A, winged helix 1, GST fusion (KAT6A, Homo sapiens, UniProt Q92794, residues 1-85)
Notes: 8-mer, flanks averaged, mean of 2 arrays, mostly near background
Target sequence (chain): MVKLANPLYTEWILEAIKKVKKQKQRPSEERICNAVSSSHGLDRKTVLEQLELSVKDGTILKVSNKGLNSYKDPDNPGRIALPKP
| Sequence | E-score |
| --- | --- |
| CGGGGCCA | 0.113 |
| AACATCAA | -0.06 |
| TCAAAGCA | -0.221 |
| GAGTGCAA | -0.267 |
| ACAGAAGT | -0.23 |
| ACACAAGA | -0.282 |
| GTTGCGAA | -0.162 |
| ATACCGGA | 0.0728 |
| CGGTAGCC | 0.147 |
| GACGTCTC | -0.00549 |
| ATGACCCA | -0.144 |
| ACCAATAA | -0.0322 |
| ATATATGA | -0.201 |
| CAGGTTGG | -0.219 |
| ACGGACAC | 0.103 |
| AATAATGT | -0.129 |
| TCCACTCA | -0.227 |
| ATGTGTAG | -0.0599 |
| CGCTGCAA | 0.204 |
| ATAACTTA | -0.0874 |
| GCCGTGGA | 0.365 |

Set 4 — method: DHFR PCA, deep sequencing; medium: yeast; added: (+)-ABA 4.8 µM; relative to: wild-type fitted maximum; direction: higher = stronger binding
Target: ABI1, truncated, D143A, DHFR fusion (Arabidopsis thaliana)
Notes: methotrexate growth selection, single substitutions
Starting sequence: PYL1, truncated, DHFR fusion (Arabidopsis thaliana); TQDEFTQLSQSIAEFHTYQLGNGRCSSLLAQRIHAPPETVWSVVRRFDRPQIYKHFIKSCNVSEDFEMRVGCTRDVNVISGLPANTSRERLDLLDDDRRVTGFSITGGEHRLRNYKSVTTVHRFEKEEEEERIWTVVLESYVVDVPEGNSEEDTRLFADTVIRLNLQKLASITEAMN; partner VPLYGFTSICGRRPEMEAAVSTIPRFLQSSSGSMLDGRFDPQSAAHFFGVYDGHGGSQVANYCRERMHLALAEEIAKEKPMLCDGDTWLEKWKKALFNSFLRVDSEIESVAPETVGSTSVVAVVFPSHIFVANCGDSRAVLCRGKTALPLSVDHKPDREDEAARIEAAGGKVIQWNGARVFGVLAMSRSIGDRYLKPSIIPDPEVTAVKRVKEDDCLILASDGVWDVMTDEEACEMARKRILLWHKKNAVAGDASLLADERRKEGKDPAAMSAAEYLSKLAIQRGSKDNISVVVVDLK
| Variant | relative binding score [%] |
| --- | --- |
| V100S | 4.83 |
| N61T | 79.4 |
| V137E | 7.27 |
| H16G | 7.44 |
| E38Y | 11.6 |
| H16K | -8.66 |
| L8R | 6.95 |
| W134I | 78.4 |
| T39N | 47.5 |
| H110Y | 4.58 |
| N85H | 70.7 |
| V136M | 75.3 |
| T106W | 30.9 |
| L94I | 58.9 |
| R49Q | 82.5 |
| E14T | 49.6 |
| V40N | -17 |
| Q7R | 67 |

Set 5 — target: CCND1, cyclin fold, Cln2 fusion (human); method: yeast growth competition, sequencing; medium: yeast; notes: weak parent motif; relative to: not given; direction: higher = stronger binding
Starting sequence: SAMHD1 docking peptide (human); ASKSRVQLFKDDP; partner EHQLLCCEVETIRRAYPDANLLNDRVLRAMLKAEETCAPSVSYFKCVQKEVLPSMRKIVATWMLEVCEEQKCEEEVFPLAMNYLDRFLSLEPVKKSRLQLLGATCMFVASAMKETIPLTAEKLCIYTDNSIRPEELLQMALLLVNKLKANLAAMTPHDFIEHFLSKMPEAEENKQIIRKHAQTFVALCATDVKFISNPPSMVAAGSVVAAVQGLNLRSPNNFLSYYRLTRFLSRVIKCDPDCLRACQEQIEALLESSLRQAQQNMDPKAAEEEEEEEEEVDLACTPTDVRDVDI
| Variant | normalised enrichment score |
| --- | --- |
| D12G | 0.264 |
| F9L | 0.166 |
| S2F | 0.386 |
| S4W | 0.215 |
| D12M | 0.113 |
| Q7N | 0.222 |
| F9H | 0.077 |
| S2V | 0.627 |
| L8M | 0.139 |
| F9K | -0.0944 |
| D12K | 0.0492 |
| S2G | 0.119 |
| L8V | 0.226 |
| D12V | 0.717 |
| L8R | -0.341 |
| R5L | 0.0194 |
| Q7Y | 0.0807 |
| K10Q | 0.785 |
| S2D | 0.408 |
| S4T | 1.39 |
| K3F | 0.728 |
| D11K | 0.48 |
| L8Q | 0.0437 |
| K3L | 0.705 |
| L8C | -0.222 |

Set 6 — method: universal PBM; form: double-stranded DNA, one strand shown; medium: in vitro; tested at: not given; direction: higher = stronger binding
Target: Sal-like protein 4, full length isoform B (SALL4, Homo sapiens, UniProt Q9UJQ4-2, residues 1-616)
Notes: 8-mer, flanks averaged, mean of replicates
Construct (chain): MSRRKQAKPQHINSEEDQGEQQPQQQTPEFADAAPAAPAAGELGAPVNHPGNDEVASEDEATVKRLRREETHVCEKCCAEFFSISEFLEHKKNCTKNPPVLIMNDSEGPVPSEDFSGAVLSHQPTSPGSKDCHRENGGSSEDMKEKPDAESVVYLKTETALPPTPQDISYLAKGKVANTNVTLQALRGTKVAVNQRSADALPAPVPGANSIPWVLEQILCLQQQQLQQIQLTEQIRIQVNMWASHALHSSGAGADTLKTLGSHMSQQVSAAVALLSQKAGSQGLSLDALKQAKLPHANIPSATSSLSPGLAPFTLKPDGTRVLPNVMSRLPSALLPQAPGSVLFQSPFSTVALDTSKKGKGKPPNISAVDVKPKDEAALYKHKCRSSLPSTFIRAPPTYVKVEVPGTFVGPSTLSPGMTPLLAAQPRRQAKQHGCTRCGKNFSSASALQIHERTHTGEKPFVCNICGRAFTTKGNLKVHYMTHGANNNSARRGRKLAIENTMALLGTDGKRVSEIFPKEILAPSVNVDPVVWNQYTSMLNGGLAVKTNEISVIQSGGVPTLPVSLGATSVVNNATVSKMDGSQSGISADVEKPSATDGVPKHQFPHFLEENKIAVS
| Sequence | E-score |
| --- | --- |
| ATTTCCGA | 0.191 |
| ATTTCTGC | 0.225 |
| CCCAGTCA | -0.176 |
| GTCGCGCA | -0.23 |
| TAGCATAA | 0.234 |
| CCGTTTTA | 0.058 |
| CTCTTTCA | 0.0337 |
| AAACCATG | 0.0206 |
| AGGAGAGA | 0.0366 |
| GCTACAGC | -0.23 |
| TCACATAA | 0.261 |
| GTGCTATA | 0.321 |
| CACTGATA | 0.0924 |
| AATCGATG | 0.0884 |
| AGCGTGTG | -0.00383 |
| ACAGCGGG | -0.177 |
| CAGCGCGA | -0.211 |
| CCGTTGCA | -0.0444 |
| CACGAAGG | -0.155 |
| AGTGCGGG | -0.181 |
| GCTGTTGA | 0.0134 |
| AACCCACG | -0.123 |
| TATCATGA | 0.317 |
| CGTAATGC | 0.103 |
| ACTACCAA | 0.0965 |

Excerpt of the above (set 3):
| Sequence | E-score |
| --- | --- |
| CGGGGCCA | 0.113 |
| AACATCAA | -0.06 |
| TCAAAGCA | -0.221 |
| GAGTGCAA | -0.267 |
| ACAGAAGT | -0.23 |
| ACACAAGA | -0.282 |
| GTTGCGAA | -0.162 |
| ATACCGGA | 0.0728 |
| CGGTAGCC | 0.147 |
| GACGTCTC | -0.00549 |
| ATGACCCA | -0.144 |
| ACCAATAA | -0.0322 |
| ATATATGA | -0.201 |
| CAGGTTGG | -0.219 |
| ACGGACAC | 0.103 |
| AATAATGT | -0.129 |
| TCCACTCA | -0.227 |
| ATGTGTAG | -0.0599 |
